Published values from different studies.
Every numbered part comes from another study and shows a few of its results, in no order.

Block 1 — technique: competition protein-binding microarray; form: double-stranded DNA, one strand shown; medium: in vitro; tested at: 2 µM; with: Cbf1 competitor, 0.05 µM; reading: higher = stronger binding
Target: Phosphate system positive regulatory protein PHO4, full length, GST-tagged (PHO4, Saccharomyces cerevisiae, UniProt P07270, residues 1-312)
Notes: whole 60-bp probe, lowest competitor level
Construct (chain): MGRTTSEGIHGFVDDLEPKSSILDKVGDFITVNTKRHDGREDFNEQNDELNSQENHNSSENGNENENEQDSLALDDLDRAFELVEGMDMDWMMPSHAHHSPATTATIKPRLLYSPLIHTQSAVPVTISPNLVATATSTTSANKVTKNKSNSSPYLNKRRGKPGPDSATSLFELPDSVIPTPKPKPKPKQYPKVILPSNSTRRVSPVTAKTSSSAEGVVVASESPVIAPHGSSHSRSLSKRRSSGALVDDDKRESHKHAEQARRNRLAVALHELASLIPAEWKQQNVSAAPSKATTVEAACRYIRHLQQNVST
| Sequence | fluorescence intensity [a.u.] |
| --- | --- |
| CGGGGTTAAGTTTGAACCGTGGGTGGCTTGCAGCAGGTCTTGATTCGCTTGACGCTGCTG | 7460 |
| ATATTTTGGTAGCGCCGCGTGGGTAACAATGCAGTAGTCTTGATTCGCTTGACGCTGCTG | 10500 |
| GAGTTATAATTTCACCACGTGAGCCCGATGAAATAGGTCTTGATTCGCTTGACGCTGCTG | 16700 |
| ACTGGTCAAAACCATCACGTGAAAAGGAAAACAAGAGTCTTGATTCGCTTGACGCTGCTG | 12500 |
| AAATTACTAAGTTGGCTCGTGGGTGACGCCGTATGAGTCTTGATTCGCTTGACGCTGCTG | 10600 |
| CGTAACCAGACGAGTCACGTGTAATTTTGTAACTCAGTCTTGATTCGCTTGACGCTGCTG | 13300 |
| CTTCTGTAAATTTGAGTGGTGGGTGGACGCGCCCCGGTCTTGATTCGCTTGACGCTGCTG | 4330 |
| CGGGGTTAAGTTTGGTACGTGGGTGGCTTGCAGCAGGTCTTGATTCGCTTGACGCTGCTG | 7690 |
| CGTCCTAGTGATTGTCACGCTACTTCCATGAGGAAGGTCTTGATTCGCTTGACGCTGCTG | 5660 |
| AAAGCGGTAATTTGTCACTGAACTTCACATATCTATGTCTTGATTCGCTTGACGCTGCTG | 3470 |
| CTGCATCGGCCGGCCCATGTGAAAAGGAAGTATTTAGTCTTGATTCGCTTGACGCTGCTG | 7230 |
| CGACGGAACCCAGGACACGTAATGAGGAAGTTTCATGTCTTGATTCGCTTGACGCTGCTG | 4370 |
| CCATAGGTTCACATCCATGTGCACTGGTGCTGCGTTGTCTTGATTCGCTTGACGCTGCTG | 8980 |
| TGCGCAACAACTTGTCACAGCACTTTATGTCTAGAAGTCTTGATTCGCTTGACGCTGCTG | 3210 |
| GCGACTATGGTATTTCTCGTGATGGGCCTGAAGGTTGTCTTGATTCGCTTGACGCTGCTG | 4240 |
| ACTAATGAATTGGTCCACGTTTAGCTTACTTCCCGAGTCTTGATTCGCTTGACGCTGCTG | 12400 |
| TTGCTTGCGCTTCTGCATGTGCTTGTGCTTGTGCTTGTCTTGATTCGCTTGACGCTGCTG | 9550 |
| TTGCATATTGTTACCCACGGCTTCTAGCAACATGGAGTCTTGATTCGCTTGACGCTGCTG | 5960 |
| CGTCCTAGCGATTGACGCGTGGGTGCCATGAGGAAGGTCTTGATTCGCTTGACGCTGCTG | 10600 |
| GCTGTGTGAGCGGCCCTCGTGGCTCGGGAGGTGCTGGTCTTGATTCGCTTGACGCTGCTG | 13100 |
| CACTAGCTCGGTTTAGTTGTGACGGGTCTGCTGTACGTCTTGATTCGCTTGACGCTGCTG | 3960 |
| CGTCCTAGTGATTTTCACGTGTATTCCATGAGGAAGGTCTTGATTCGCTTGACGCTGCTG | 12300 |
| GGAGACGTCGCCTTTCTCGTGAAGGCTGGCGGGGTAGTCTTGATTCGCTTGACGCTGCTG | 2880 |
| GGCAGGCGAAAATCCTATGTGCGTAGAGCTGATACAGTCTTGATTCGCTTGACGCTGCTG | 3880 |

Block 2 — technique: protein binding microarray; form: double-stranded DNA, one strand shown; medium: in vitro; tested at: not given; relative to: not given; reading: higher = stronger binding
Target: Histone acetyltransferase KAT6A, winged helix 2, GST fusion (KAT6A, Homo sapiens, UniProt Q92794, residues 85-181)
Notes: 8-mer, flanks averaged, mean of 2 arrays, mostly near background
Residues (chain): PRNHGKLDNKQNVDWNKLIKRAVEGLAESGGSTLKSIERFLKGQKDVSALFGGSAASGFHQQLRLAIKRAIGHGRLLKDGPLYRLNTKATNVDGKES
| Sequence | E-score |
| --- | --- |
| AGGCAAAG | 0.00021 |
| GCTACGGA | -0.0707 |
| CTTACTTA | -0.232 |
| ATGGAGCC | -0.153 |
| CTCGCGAC | 0.175 |
| AGTAACTC | -0.0156 |
| CCCCTCAA | 0.0982 |
| AGTGCAAG | 0.0546 |
| ATCCCACC | 0.0476 |
| GAATGAAA | 0.0237 |
| AGAACCTG | -0.0893 |
| GGAGACGA | 0.146 |
| ATTGCATG | 0.128 |
| GCTGGTGA | 0.204 |
| CATCCACG | 0.0782 |
| CGTCAAAA | -0.048 |
| AACCTTTC | -0.051 |
| AATGGTAG | -0.00458 |
| GGTGTCAC | 0.0283 |
| TGCGGCAA | 0.106 |
| CAACTGTA | -0.171 |
| CAATGGCG | 0.0542 |
| ACAACCTA | -0.0831 |
| TCGAATCA | -0.0698 |
| GTTGTAGA | 0.00624 |

Block 3 — technique: RNA Bind-n-Seq; form: RNA; medium: in vitro; tested at: not given; relative to: input RNA pool; reading: higher = stronger binding
Target: RING finger protein unkempt homolog, zinc fingers 1-6, GST-SBP tag (UNK, Homo sapiens, UniProt Q9C0B0, residues 30-357)
Chain of UniProt Q9C0B0 (30-357, looked up): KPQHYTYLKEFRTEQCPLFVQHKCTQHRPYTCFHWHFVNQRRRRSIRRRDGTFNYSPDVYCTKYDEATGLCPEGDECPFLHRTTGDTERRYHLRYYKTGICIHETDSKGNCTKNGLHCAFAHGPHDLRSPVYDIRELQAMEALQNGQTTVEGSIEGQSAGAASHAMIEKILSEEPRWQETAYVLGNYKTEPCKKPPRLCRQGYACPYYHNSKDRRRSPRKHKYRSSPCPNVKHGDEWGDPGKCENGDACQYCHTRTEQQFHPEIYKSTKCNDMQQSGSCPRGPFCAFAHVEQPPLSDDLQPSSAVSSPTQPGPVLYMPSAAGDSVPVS
Notes: RNA with constant flanks, human-mouse chimeric sites, ends assumed
| Sequence | bound/input enrichment |
| --- | --- |
| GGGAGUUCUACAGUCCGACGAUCCAGCUGCAGACAGAAAAGGAUGAGAAGGAGCUGUAUAAGGUACAUUUGAAGAAUACAGAAAUAGAAAAUACGAAGCUUGUGUCAGAGGUCCAGACUUUAAAAAAUUUAGAUGGAAACAAACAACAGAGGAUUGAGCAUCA | 4.9 ratio |
| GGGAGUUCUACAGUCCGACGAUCUUUGUAUUUAUGCUAAGCACACGUGCUGGUGGUCUUGGCAUCAAUCUUGCGACUGCUGAUGUAGUCAUUUUAUAUGACUCAGAUUGGAAUCCGCAAGUUGAUCUUCAGGCUAUGGACCGUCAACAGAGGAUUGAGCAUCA | 0.146 ratio |
| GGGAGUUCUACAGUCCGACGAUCACUCUUGACUCUUUCCAUUCUCGUCCCUUUCCUCUUGAUAUUCAAGGCCAUGAAUCCCAAAAUAACAGUCUUAGUGGCUAGCACCCAAACAGAGGUGGAAUAAAUCCACCCCAGUGUCUCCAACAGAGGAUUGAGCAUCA | 0.471 ratio |
| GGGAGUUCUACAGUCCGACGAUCGCUCUUGGGAAUGUAAUAAGUGCCUUGGGAGACAAGAGCAAGAGAGCCACCCAUGUCCCUUACAGAGACUCUAAGCUGACAAGACUCUUGCAGGAUUCCCUUGGGGGUAACAGCCAAACCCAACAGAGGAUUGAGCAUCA | 0.122 ratio |
| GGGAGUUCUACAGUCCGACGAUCGCUGGAUCUUCUAAGUACCAGUGGGGCAUUAUGAAAUCCCUUGGGCUCUCUGAUGACGACAUAGUGAAGUUUUCUGAAGCAGAGCACUGGCUUGAUUAUUUCCCACCACUGGCCGUUCAGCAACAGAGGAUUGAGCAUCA | 0.17 ratio |
| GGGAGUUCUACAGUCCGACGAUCGGACAUCUGUCAAAUUGUUAUGUUCCUAAAAACGUAGUGAACACUCUGAUACACUUCAUCUGCUUGUACAUCUGUAUGAUAGAGAAAUGUAAAUAUGUUAAUCCAAGCAAUGUGUCACUUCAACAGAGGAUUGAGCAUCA | 0.286 ratio |
| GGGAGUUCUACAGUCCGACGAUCGUGACUGGUGUUAAGAUUUCCCCUCAGCAAAGAAGUGCAGUAGUCACCAUAAUUCCAUCUAUAGUGAGUGCCAGUCAGAUAAAAGAGCUGGUCCCAGACCUCAGUUUAGACAUGGGAACUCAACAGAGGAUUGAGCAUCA | 0.63 ratio |
| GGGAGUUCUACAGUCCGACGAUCCCCCAAUACCAUUUGCAGGUCUGGAACCUGCAUUCUUUUUUUAAAAAACAUGUAUACAUUUUAGGGCUGUAGAUUUAUUUUCCUGGUUUUGUUUUUCAUUGCUGACUUUUGAGCACAGAACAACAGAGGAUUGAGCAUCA | 1.24 ratio |
| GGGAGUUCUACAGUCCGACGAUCCCAAUUGUGGAGCAGUACUUGAAGACAAAGAAAAAUUCUAGUCAUUUAAUCAUGAAAUACAUUAGCUGCCGCCUGCUGACACUCAUCAUUAUACUGUUAGCGUGUAUCUACCUGGGCUAUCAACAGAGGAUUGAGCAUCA | 0.823 ratio |
| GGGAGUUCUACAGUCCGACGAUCUACUCAACUUUCUUGCCACGUUUUGAAUUCCAAGACAUUAUUCCUCCAGAUGACUUCCUAACUAGUGAUGAAGAGCAAGAUUUGGUUUUAUUUGGAACUAUGAGAGGACAAGUUGUUGGACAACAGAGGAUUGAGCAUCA | 0.244 ratio |
| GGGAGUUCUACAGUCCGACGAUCAGUGUGCAGGAAUUCAUGACCUUUACAAGUCAACUGAUUGUGGAACGCUCGGGGAAAGGCAGCAGAGCUUCUGUCAAAGAACAAGACUAUCUUUGCCAUGUCUACGUCCGGAGCGACAGUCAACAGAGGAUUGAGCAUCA | 0.124 ratio |

Block 4 — technique: protein-binding microarray; form: double-stranded DNA, one strand shown; medium: in vitro; tested at: 940 nM top; notes: 60-bp whole probe; with: salmon DNA 0.4 mg/ml; relative to: random background probes; reading: higher = stronger binding; all sequences stand within: GCCTAGCAC … GTCTTGATTCGCTTGACGCTGCTG
Target: Interferon regulatory factor 5, full length, phosphomimetic (IRF5, Homo sapiens, UniProt Q13568-2, residues 1-514, S451D/S453D/S456D/S462D)
| Sequence | fitted relative affinity |
| --- | --- |
| TTAGGACAGGACACTGGGTTAGTGCTA | -0.318 z-score |
| TCGCCTTTTTTGTTGTTTTTGTGCTAG | 1.89 z-score |
| GACGTTATCGGGTATCGAGACGTGCTA | 0.795 z-score |
| TTAGGTATCGGGTATCGGCTAGTGCTA | 6.98 z-score |
| TTAGGTCTCCTTATGCTTTAGTGCTAG | 0.146 z-score |
| ACTCAGTAACATTATTGTAGGTGCTAG | -0.158 z-score |
| CAGCTTCTAATATTCATTTTGTGCTAG | 0.763 z-score |
| GACGATCTCAGACTGGAGCCGTGCTAG | -0.42 z-score |
| TTAGATTACGGGTATCGATTAGTGCTA | 2.56 z-score |
| CTTGGTAAATTTAGCCGACGGTGCTAG | -0.58 z-score |
| GACGGTATCCTTTTCATGACGTGCTAG | 0.696 z-score |
| GACGGTATCGATCTCGGGACGTGCTAG | 7.27 z-score |
| TCATCTTTCATTGCTGCACTGTGCTAG | 1.44 z-score |
| TTCGGTATCGGGACTGGGTTAGTGCTA | 3.97 z-score |
| TTAGGTATCCTTTTCCTTTAGTGCTAG | 0.717 z-score |
| TTAGGTCTCGGTACCGGTTAGTGCTAG | 4.68 z-score |
| TTAGATTTCAGTTTCGTTTAGTGCTAG | 6.56 z-score |
| GCCATTGTGGGTCTTGCAGAGTGCTAG | -0.587 z-score |
| TTAGGTTCCGACACTGGGTTAGTGCTA | 0.505 z-score |
| CTCGGTTTCCAAATTGTCTCGTGCTAG | 0.814 z-score |
| TTAGGTATCGACACTGGGTGAGTGCTA | 4.77 z-score |
| GACGGACTGGACACTGTGGACGTGCTA | -0.393 z-score |
| TATTGTGCAATTAGAGCCCTGTGCTAG | -0.732 z-score |

Repeated from above (block 4):
| Sequence | fitted relative affinity |
| --- | --- |
| TTCGGTATCGGGACTGGGTTAGTGCTA | 3.97 z-score |
| TTAGGTATCCTTTTCCTTTAGTGCTAG | 0.717 z-score |
| TTAGGTCTCGGTACCGGTTAGTGCTAG | 4.68 z-score |
| TTAGATTTCAGTTTCGTTTAGTGCTAG | 6.56 z-score |
| GCCATTGTGGGTCTTGCAGAGTGCTAG | -0.587 z-score |
| TTAGGTTCCGACACTGGGTTAGTGCTA | 0.505 z-score |
| CTCGGTTTCCAAATTGTCTCGTGCTAG | 0.814 z-score |
